Experimental data collected from several papers.
Each numbered part is a random draw from the data of one study; scales do not carry over between parts. Positions count from the first letter of the parent shown.

Set 1 — target: CCNB3, cyclin fold, Cln2 fusion (human); method: yeast growth competition, sequencing; matrix: yeast; setting: weak parent motif; baseline: not given; reading: higher = stronger binding
Parent: PKN2 docking peptide (human); VSAVQKLDFSDTM
`VSIVQKLDFSDTM [A3I]` — result for “normalised enrichment score”: 0.281.
`VSAVQKLDRSDTM [F9R]`: “normalised enrichment score” 0.414.
`VSAHQKLDFSDTM [V4H]` — result for “normalised enrichment score”: 0.276.
For `VSAVQKIDFSDTM [L7I]`, “normalised enrichment score” read -0.202.
Under “normalised enrichment score”, `VSAVQKLEFSDTM [D8E]` is recorded as 0.38.
`VSQVQKLDFSDTM [A3Q]`: “normalised enrichment score” 0.457.
`VFAVQKLDFSDTM [S2F]`: “normalised enrichment score” 0.317.
For `VSAVQSLDFSDTM [K6S]`, “normalised enrichment score” read 0.245.
`VSAVQKPDFSDTM [L7P]`: “normalised enrichment score” -0.281.

Set 2 — method: competition protein-binding microarray; molecule type: double-stranded DNA, one strand shown; matrix: in vitro; tested at: 2 µM; added: Pho4 competitor, 0.05 µM; reading: higher = stronger binding
Target: Centromere-binding protein 1, full length, His-tagged (CBF1, Saccharomyces cerevisiae, UniProt P17106, residues 1-351)
Sequence of UniProt P17106 (whole entry, looked up): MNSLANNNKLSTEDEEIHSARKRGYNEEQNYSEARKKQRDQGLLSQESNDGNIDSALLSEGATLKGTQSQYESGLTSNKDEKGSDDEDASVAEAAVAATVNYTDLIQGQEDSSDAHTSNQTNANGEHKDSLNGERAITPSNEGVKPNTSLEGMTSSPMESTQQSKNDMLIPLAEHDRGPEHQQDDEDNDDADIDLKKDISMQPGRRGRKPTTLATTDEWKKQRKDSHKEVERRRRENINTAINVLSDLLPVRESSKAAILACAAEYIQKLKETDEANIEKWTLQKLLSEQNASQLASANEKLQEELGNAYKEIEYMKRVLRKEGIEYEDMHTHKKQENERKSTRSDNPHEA
Setting: whole 60-bp probe, lowest competitor level
With `AGGCTCGCTGGTCAACACATGCTGTGAGCAGGCCTGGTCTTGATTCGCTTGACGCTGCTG` the fluorescence intensity was 65.8 a.u.
With `TGCGCAACAACTTGTCACGGCACTTTATGTCTAGAAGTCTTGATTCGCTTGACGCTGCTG` the fluorescence intensity was 82.5 a.u.
`CGACAAGCCGCTATTAGCGTGGGTACTGACATCAGGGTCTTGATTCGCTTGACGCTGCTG` has a fluorescence intensity of 59.3 a.u.
`ATACCCTCAATTGGGCTCGTGTTGAGCAAGTTAAACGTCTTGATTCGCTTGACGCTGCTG` has a fluorescence intensity of 88.5 a.u.
`CTAAAATCAGCATCGCACATGGACGGTTAGCTCGCGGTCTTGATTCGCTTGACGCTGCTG` gave a fluorescence intensity of 69.5 a.u.
With `TGCGGCCATAAGCGTCACAGGCCACTCACTGGGAGGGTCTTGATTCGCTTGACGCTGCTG` the fluorescence intensity was 81.2 a.u.
The fluorescence intensity of `CGAGATTCATACAATGGCGTGCAAACAAAATGATTAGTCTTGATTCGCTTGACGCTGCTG` is reported as 92.2 a.u.
The fluorescence intensity of `ATTAAACTTTTTAGACACATGACAAAGGCCATCGGCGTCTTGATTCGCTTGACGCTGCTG` is reported as 349 a.u.
`TGCGCAACAACTTTTCACGTGCAATTATGTCTAGAAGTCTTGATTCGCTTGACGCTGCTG` has a fluorescence intensity of 1540 a.u.
The fluorescence intensity of `CTCCTCTGCAGAAAGCACGAGGTTGCCCTTCTACAGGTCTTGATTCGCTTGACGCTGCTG` is reported as 126 a.u.
With `CCGCCCCCCACCTTGCATGCGGATTGGTTGTCCAAAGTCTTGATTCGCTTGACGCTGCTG` the fluorescence intensity was 151 a.u.

Set 3 — method: RNA Bind-n-Seq; molecule type: RNA; matrix: in vitro; tested at: 200 nM; setting: whole 134-nt RNA, ends assumed; added: 150 mM LiCl; baseline: input library; reading: higher = stronger binding; all molecules: 7-deaza-guanosine replaces G
Target: Fragile X messenger ribonucleoprotein 1, C-terminal low-complexity region (Fmr1, Mus musculus, UniProt P35922)
With `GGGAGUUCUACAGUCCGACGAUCCAAGUCCUGUGCUACACAUCGUAUGUACCGAAUCGGUGGAAAAAGGAAAAAAAGGAAAGUAUUAUGUUACGCCGUUCGGAUCUGCACUUCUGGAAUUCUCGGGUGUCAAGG` the log2 enrichment was -0.899.
`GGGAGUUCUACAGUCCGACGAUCACCAUGCAGGUGGGCAUCUUUGGGAAGUGGGGCAAGGGGGGGAUAGGGAGGGGGGUAACACUUUGGGAACAGGUGGUCCAAGGUCGUUUCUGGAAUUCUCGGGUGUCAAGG` has a log2 enrichment of 1.8.
The log2 enrichment of `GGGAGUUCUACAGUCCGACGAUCAAGUCCUGUGCUACACAUCGUAUGUACCGAAUCGGGAAAAAGGGAGGGAAAAAGGGAAAGUAUUAUGUUACGCCGUUCGGAUCUGCACUUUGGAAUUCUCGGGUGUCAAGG` is reported as -0.257.
`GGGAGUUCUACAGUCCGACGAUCAGUCCUGUGCUACACAUCGUAUGUACCGAAUCGGAAAAAGGGGAAAAAGGAAAAAGGAAAGUAUUAUGUUACGCCGUUCGGAUCUGCACUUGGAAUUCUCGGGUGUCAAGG` gave a log2 enrichment of -1.53.
With `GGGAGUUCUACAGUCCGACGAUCUCUAGAUACAGAUGCACGAUUUGGCCAUGGAUCCGACUACUCUCGCCAACAGAACAGAUUUAAUGACUUUGAUCACCGAGAGAGGGGCAGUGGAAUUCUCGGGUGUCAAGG` the log2 enrichment was -1.56.
With `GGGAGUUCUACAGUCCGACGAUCCUCAAGUCCUGUGCUACACAUCGUAUGUACCGAAUCGGUUGGGUUGGGGUUGGGAAAGUAUUAUGUUACGCCGUUCGGAUCUGCACUUCCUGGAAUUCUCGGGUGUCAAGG` the log2 enrichment was -0.158.
`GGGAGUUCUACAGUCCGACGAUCUCAAGUCCUGUGCUACACAUCGUAUGUACCGAAUCGGAAAGGAAAGGGAAAGGGGAAAGUAUUAUGUUACGCCGUUCGGAUCUGCACUUCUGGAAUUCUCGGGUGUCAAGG` gave a log2 enrichment of -0.976.
For `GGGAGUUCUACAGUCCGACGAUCGUCCUGUGCUACACAUCGUAUGUACCGAAUCGGGGCCCCCGGGGCCCCCGGCCCCCGGGAAAGUAUUAUGUUACGCCGUUCGGAUCUGCAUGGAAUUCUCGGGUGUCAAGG`, the log2 enrichment was -1.78.
With `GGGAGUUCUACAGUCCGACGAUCUGGGAGGUGGAUUUUGUUUAUUUUUUUAGCUCAUUUCCAGGGGUGGGAAUUUUUUUUUAAUAUGUGUCAUAAAUAAAGUUGUUUUUGAAAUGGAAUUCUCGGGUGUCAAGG` the log2 enrichment was 0.131.

Other studies, line by line
For `PhoQ, residues 284 288 289 292 302 303 TYGVAM`, the fold induction was 11.9 (PhoP, residues 12 14 15 18 19 YHFSH (Escherichia coli, UniProt P23836); Sort-seq, refers to: YFP reporter; E. coli; PhoQ-PhoP variant library, added: 10 µM Mg2+; baseline: high Mg2+ state, higher = stronger signaling).
